Measurements gathered from unrelated publications.
Every numbered part comes from another study and shows a few of its results, in no order.

Sample 1 — technique: universal PBM; form: double-stranded DNA, one strand shown; medium: in vitro; concentration: 600 nM; direction: higher = stronger binding
Target: Sal-like protein 4, full length isoform A (SALL4, Homo sapiens, UniProt Q9UJQ4, residues 1-1053)
Chain of UniProt Q9UJQ4 (whole entry, looked up): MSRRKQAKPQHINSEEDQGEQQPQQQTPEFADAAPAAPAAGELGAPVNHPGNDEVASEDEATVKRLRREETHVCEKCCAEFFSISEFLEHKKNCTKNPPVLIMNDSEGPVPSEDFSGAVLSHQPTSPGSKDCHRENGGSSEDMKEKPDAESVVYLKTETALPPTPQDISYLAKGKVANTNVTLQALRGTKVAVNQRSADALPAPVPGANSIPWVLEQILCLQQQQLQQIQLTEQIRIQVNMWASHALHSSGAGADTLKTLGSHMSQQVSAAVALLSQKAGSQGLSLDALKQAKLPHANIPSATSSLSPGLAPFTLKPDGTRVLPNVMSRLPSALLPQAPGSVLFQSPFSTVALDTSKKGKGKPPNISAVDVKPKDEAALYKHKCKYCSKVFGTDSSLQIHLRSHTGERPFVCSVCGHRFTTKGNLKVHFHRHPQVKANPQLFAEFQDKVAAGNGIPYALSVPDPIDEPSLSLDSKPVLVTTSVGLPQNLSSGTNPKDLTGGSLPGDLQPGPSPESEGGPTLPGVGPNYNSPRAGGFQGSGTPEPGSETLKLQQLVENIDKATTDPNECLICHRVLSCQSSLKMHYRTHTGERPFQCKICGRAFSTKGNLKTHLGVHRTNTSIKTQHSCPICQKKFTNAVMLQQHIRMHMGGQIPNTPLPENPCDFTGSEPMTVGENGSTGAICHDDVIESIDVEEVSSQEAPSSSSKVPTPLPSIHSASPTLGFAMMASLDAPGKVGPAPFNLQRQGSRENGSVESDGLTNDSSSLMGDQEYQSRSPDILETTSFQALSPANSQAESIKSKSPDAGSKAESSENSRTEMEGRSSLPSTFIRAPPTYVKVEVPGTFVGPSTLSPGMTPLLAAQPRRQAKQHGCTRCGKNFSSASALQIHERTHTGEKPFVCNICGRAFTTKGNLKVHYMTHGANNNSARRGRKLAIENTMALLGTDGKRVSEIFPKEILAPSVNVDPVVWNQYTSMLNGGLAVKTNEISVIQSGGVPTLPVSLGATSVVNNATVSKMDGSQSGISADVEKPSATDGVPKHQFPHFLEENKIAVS
Notes: 8-mer, flanks averaged, mean of replicates
Sequence	E-score
CTTTTGTC	0.00915
AGATTGCC	-0.175
AAAAAAAC	0.227
CATAACAA	0.35
CGAACTCG	-0.19
GCTGCTGA	-0.196
GCCGCTAA	-0.26
GTAATTGA	0.169
GCGGTAAC	0.000425
ATTGATCG	0.179
CAGGCCAC	-0.3
AGACGTCC	-0.157
CGTTCTCC	-0.0625
CCTAATTA	0.203
ACTGCCTC	-0.142
AATGGAAC	0.00436
TAAAGGCA	0.125
CAATTGTA	0.101
AGTAGGGG	-0.114
ATTAGGAC	0.242

Sample 2 — technique: RNA Bind-n-Seq; form: RNA; medium: in vitro; concentration: 200 nM; notes: whole 134-nt RNA, ends assumed; added: 150 mM KCl; baseline: input library; direction: higher = stronger binding
Target: Ras GTPase-activating protein-binding protein 1, full length (G3BP1, Homo sapiens, UniProt Q13283)
Chain of UniProt Q13283 (whole entry, looked up): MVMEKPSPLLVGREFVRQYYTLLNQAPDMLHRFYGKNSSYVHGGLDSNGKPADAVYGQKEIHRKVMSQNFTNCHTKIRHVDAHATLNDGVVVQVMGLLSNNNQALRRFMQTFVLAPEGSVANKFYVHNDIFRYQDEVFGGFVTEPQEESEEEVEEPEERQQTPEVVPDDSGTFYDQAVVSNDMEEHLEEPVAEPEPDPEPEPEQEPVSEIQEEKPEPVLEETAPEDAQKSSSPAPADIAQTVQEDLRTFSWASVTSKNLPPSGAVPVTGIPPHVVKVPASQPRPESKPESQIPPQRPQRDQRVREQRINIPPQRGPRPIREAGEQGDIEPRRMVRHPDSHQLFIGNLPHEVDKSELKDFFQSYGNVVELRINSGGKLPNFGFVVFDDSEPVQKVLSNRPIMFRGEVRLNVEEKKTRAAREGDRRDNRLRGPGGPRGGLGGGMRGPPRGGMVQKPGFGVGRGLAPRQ
All sequences stand within: GGGAGUUCUACAGUCCGACGAUC … UGGAAUUCUCGGGUGUCAAGG
Sequence	log2 enrichment
ACCAUGCAGGUGGGCAUCUUUGGGAAGUGGGGCAAGGGGGGGAUAGGGAGGGGGGUAACACUUUGGGAACAGGUGGUCCCAGGUCGUAAA	1.23
AGUCCUGUGCUACACAUCGUAUGUACCGAAUCGGUUUUUUUGGUUUUUGGUUUUUGGAAAGUAUUAUGUUACGCCGUUCGGAUCUGCACU	-1.41
GUCCUGUGCUACACAUCGUAUGUACCGAAUCGGAAAAAAGGAAAAAAGGAAAAAAGGGAAAGUAUUAUGUUACGCCGUUCGGAUCUGCAC	-0.974
ACCAUGCAGGUGGGCAUCUUUGGGAAGUGGGGCAAGGGGGGGAUAGGGAGGGCGGUAACACUUUGGGAACAGGUGGUCCCAGGUCGUUUC	1.28
AGUCCUGUGCUACACAUCGUAUGUACCGAAUCGGGAAAAAGGGAAAAAGGAAAAAGGAAAGUAUUAUGUUACGCCGUUCGGAUCUGCACU	-0.901
CAAGUCCUGUGCUACACAUCGUAUGUACCGAAUCGGGAGGGUUUUUUUGGGAGGGAAAGUAUUAUGUUACGCCGUUCGGAUCUGCACUUC	0.385
CUGUGCUACACAUCGUAUGUACCGAAUCGGGGUUUUUUUGGGGAAAAAAAGGGGUUUGGGGAAAGUAUUAUGUUACGCCGUUCGGAUCUG	-0.233
ACCAUGCAGGUGGGCAUCUUUGGGAAGUGGGGCAAGGGGGGGAUAGGGAGGGGGGUAACACUUUGGGAACAGGUGGACCCAGGUCGUUUC	1.09
CACAGACAACACGCACCCACACAGACAUAGAGGGAAGGGGUUGGGAUGGGGACAGGGUGCACAGCAGGGCGGGGUAGGACCCCAGCCCCU	1.8
AAGUCCUGUGCUACACAUCGUAUGUACCGAAUCGGGGCCCCGGGCCCCGGGCCCCGGAAAGUAUUAUGUUACGCCGUUCGGAUCUGCACU	-1.14
CACAGACAACACGCACCCACACAGACACAGAGGGAAGGGGUUGGGAUGGGGACAGGGUGCACAGCAGGGCGGGGUAGGACCCCAGCCCCC	1.92
ACCAUGCAGGUGGGCAUCUUUGGGAAGUGUGGCAAGGGGGGGAUAGGGAGGGGGGUAACACUUUGGGAACAGGUGGUCCCAGGUCGUUUC	1.53
GUCCUGUGCUACACAUCGUAUGUACCGAAUCGGGGUUUGGGGUUUUUGGGGUUUGGGGAAAGUAUUAUGUUACGCCGUUCGGAUCUGCAC	0.52
UCCUCAAGUCCUGUGCUACACAUCGUAUGUACCGAAUCGGUGGGUGGUGGGGAAAGUAUUAUGUUACGCCGUUCGGAUCUGCACUUCCAG	0.454

Sample 3 — technique: protein-binding microarray; form: double-stranded DNA, one strand shown; medium: in vitro; concentration: 250 nM; notes: 60-bp whole probe; added: salmon DNA 0.4 mg/ml; baseline: random background probes; direction: higher = stronger binding; all sequences stand within: GCCTAGCAC … GTCTTGATTCGCTTGACGCTGCTG
Target: Interferon regulatory factor 5, full length, phosphomimetic (IRF5, Homo sapiens, UniProt Q13568-2, residues 1-514, K96S/S451D/S453D/S456D/S462D)
Sequence	log fluorescence
TTTGGACTGGACTTTCGGTTAGTGCTA	9.58 z-score
GACGGTTTCCGTTCCCTGACGTGCTAG	1.06 z-score
TTAGGACTGGACTATCGCTTAGTGCTA	1.12 z-score
GACGGTTTCGGTTCCGGGATGTGCTAG	10 z-score
GACGGTATCGGACTGAGGACGTGCTAG	1.16 z-score
TCATGTTTTTTTCTACTACTGTGCTAG	1.38 z-score
TCATTTATTTATTTTTAACTGTGCTAG	0.982 z-score
TTAGGTATCGGTCTCGGTTTGTGCTAG	7.11 z-score
TTAGATCTCAGGCTGGATTAGTGCTAG	-0.338 z-score
TTAGACCTGGGGTATCGATTAGTGCTA	1.85 z-score
GACGGACTGCTTCTCGTGACGTGCTAG	-0.436 z-score
TCAGGTTGAACATGAACACTGTGCTAG	-0.27 z-score
CATTTATTTACTCTCTACATGTGCTAG	0.985 z-score
TTAGGTCTCGGTTTCTGTTAGTGCTAG	3.36 z-score
GACGAACTGATTATCGAGACGTGCTAG	1.41 z-score
TCATTTCCCAACATCAGACTGTGCTAG	0.562 z-score
AACGGTATCGGTTTCGGGACGTGCTAG	8.77 z-score
TTTGCTCTGTGCATAGGCCTGTGCTAG	0.0376 z-score
TCAAGGTTCTCTTTTATACTGTGCTAG	0.0482 z-score
GACGGACTGCTCATCCTGACGTGCTAG	-0.589 z-score
GACGATCTCAGCTTCGAGACGTGCTAG	-0.149 z-score
GACGATATCGGATATCGAGACGTGCTA	1.94 z-score
GACGATCTCAGTATAGAGACGTGCTAG	-0.114 z-score
CTTTCTTTATGCACTCTTTACGTGCTA	1.99 z-score

Sample 4 — technique: protein binding microarray; form: double-stranded DNA, one strand shown; medium: in vitro; concentration: not given; baseline: not given; direction: higher = stronger binding
Target: Histone acetyltransferase KAT6A, both winged helices, GST fusion (KAT6A, Homo sapiens, UniProt Q92794, residues 1-181)
Notes: 8-mer, flanks averaged, mean of 2 arrays, mostly near background
Construct (chain): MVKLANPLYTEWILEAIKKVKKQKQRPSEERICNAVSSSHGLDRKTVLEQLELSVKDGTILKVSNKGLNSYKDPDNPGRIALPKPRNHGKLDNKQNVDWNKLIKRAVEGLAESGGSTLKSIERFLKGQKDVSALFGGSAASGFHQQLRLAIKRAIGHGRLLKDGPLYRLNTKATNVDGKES
Sequence	E-score
ATTCAAAA	0.0786
CTCCATGC	-0.187
GGTGAACA	-0.127
CCGGTGGC	0.117
AGAGGCCG	0.0915
ATTCGTGA	-0.148
CTACACCA	-0.254
CGCATACC	0.266
GTAAGCTA	-0.078
ACTGGAAG	-0.154
CGACTTGA	-0.0912
GCCGACGC	0.316
GTGGGCGA	-0.0757
CAAGGGTA	-0.137
AGTTCGAC	-0.061
AAACATAG	-0.0396
AGTTAAAT	-0.0213

Sample 5 — technique: RNA Bind-n-Seq; form: RNA; medium: in vitro; concentration: 365 nM; baseline: no-protein control; direction: higher = stronger binding
Target: RNA binding protein fox-1 homolog 2, RRM domain, GST-SBP tag (RBFOX2, Homo sapiens, UniProt O43251-10, residues 100-194)
Notes: natural RNA segment, single round, ends assumed
All sequences stand within: GGGAGUUCUACAGUCCGACGAUC … UGGAAUUCUCGGGUGCCAA
Target sequence (chain): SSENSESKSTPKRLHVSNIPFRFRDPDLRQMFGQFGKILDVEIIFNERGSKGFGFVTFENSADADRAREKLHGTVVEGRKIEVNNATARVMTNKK
Sequence	RBNS enrichment (R)
CAUGCUUUCUGUUAUUAUCUUUCUUGAUACUUUCCAAAUUCUCUGAUUCUAGAAAAAGGAAUCAUUCUCCCCUCCCUCCCACCACAUAGAAUCAACAUAUGGUAGGGAUU	0.685
GCCAGGCGAUUUGUGUCUAAGGAUACGAUUUUGAACCAUAUGGGCAGUGUACAAAAUAUGAAACAACUGUUUCCACACUUGCACCUGAUCAAGAGCAGUGCUUCUCCAUU	0.252
GCUCUCACGAUGCCCACCUAGGCUUUCUGGCCAGUGUACUGAACAGUGCUACAAGCCCUCAGGAGCUCAAGAUAGCAGAGUCCUUCUUUCAAAGCCCAGCUUAGUGAGGA	0.22
CCCCGUCUUCCAGGAGCCACAACUCAGAAGAAAAGGGUGCUCAGACUUUUGUUAUACACAUUUGCUUUGUGUAAAUAAAUGUUUACAAUUUUAUAUGAAAGAUGGAAUAA	0.328
GCUUGCCGUCUGGGAUGCUCAGUAGAGUCAAGGGACCCAGCAGAGAUGCAUGAGACAAGAUGGAUUGCGAGCAAUUAGUGGAUGUGUGCACUUUUUGUUCAGAGUUUAAG	6.55
CUACUACCUCACCGCCAAGUCCUCCCCCAGCUGUUACCACAUGAGGGAAUACAAGGUGCUAGGUACCCUCCUUCCUCGUUGGCCACUAAGAGGUCUUAGAAACAUAGCCU	0.338
CAGACAGGCAGCUUUCCCAGCUGGUUAAAGAAGCUGGGCCCUUUUCCUCCCACACCCUGCCAGCCUUGCAUAAGCCAUUUGUUGCAGCAUUUGUUGCUCUUGGUCCAGUC	0.627
ACAGAGCUAAAGAAACGUUUUUUAAAAAACUACUUUUAAUCCAGAUCCAUGGAAUAAUAUGUAAUUCUUGUUUUCCUUGUCUUUUAGUCCAGUUUUUCUUUUUCCCUCUC	0.547
GGAAGUGAGAAUCCCUGACAUAUAGCUUUCUUGGAGAUCCCAACUCUCAUUCUUGGUGCAACUGGCUUCCAGCUCUCCAGCAGUCACUCUCCUAGGUGCAUGAUUCAGUG	1.87
GGGGCUCCCUGCAAUGGACGAGGAGGCUCUAAAGCCAGCCUAAGGCACUGAUUGUGGAAGAUCUGGCAACAUGAAAGAUUGCCAGCCUUUGUGUAUAGGACUGCGUUCGU	2.44
UAUAUAUGGAUGGAUGUAAUAUAUGUAGAACACACACAUAGAUGUAUAUAGGAUACACACUCAUGUAUGUAAACGUAUACAUAUGUGUAUAUAUGAUACAUACACAUACA	0.459
GGUGACUCAGCCCUGAUCCCGCCUCAUCUCGCUGCUCCGUGCUGCACUAGCAUCCAGAGUCAGAGUUGGUCUGGUGGCUCCAGCCCCACGUGGUAGGCUCCACACUGGGC	0.231
